Assay results pooled from the literature.
Several values in a cell are separate wells, animals, samples, runs or records.
Oprk1: Kappa-type opioid receptor (Oprk1, Rattus norvegicus, UniProt P34975)
Phospholipase D2: Phospholipase D2 (Homo sapiens, UniProt O14939)
Sigmar1: Sigma non-opioid intracellular receptor 1 (Sigmar1, Rattus norvegicus, UniProt Q9R0C9)

SMILES | target | test | system | setting | how to read | selectivity ratio
NN[C@@H](CCCC[C@H](NN)C(=O)O)C(=O)O | 4-aminobutyrate aminotransferase, mitochondrial (Rattus norvegicus, UniProt P50554) | – | rat brain homogenate | – | reference: GABA-T IC50 over CBS Ki | 12 fold
CC(=O)NCC(=O)N(C)[C@@H](Cc1ccccc1)C(=O)N[C@@H](Cc1ccccc1)C(=O)N[C@@H](Cc1ccccc1)C(=O)N[C@@H](CCCNC(=N)N)C(=O)N[C@@H](CC(C)C)C(=O)N[C@@H](CCCNC(=N)N)C(=O)N[C@@H](CCCNC(=N)N)C(=O)N[C@H](C)C(=O)N[C@@H](CCCNC(=N)N)C(=O)N1CCC[C@H]1C(=O)N[C@@H](CCCCN)C(N)=O | Oprk1 | binding, [3H]diprenorphine competition | CHO cells | – | reference: Ki mu over Ki kappa, higher = more kappa-selective | > 1240
CC(C)NC(=O)[C@H](CCc1ccccc1)NC(=O)[C@H](CC(=O)NCC(C)(C)C)NC(=O)CCc1ccccc1 | Proteasome component C5/PSMB5 (Homo sapiens, UniProt P20618+P28074) | Proteasome-Glo β5 | B-cell lymphoma lines | 1 h | reference: IC50 differences among OCI-Ly10, WSUDLCL2 and Karpas-1106P | ~22 fold
O=C(NCCN1CCC2(CC1)C(=O)NCN2Cc1ccccc1F)c1ccc2ccccc2c1 | Phospholipase D2 | – | – | – | reference: PLD1 IC50 over Phospholipase D2 IC50 | 22 fold
O=C(Cc1ccccc1Nc1c(Cl)cccc1Cl)NNC(=S)Nc1ccc(Cl)c(Cl)c1 | MAOB (Homo sapiens, UniProt P27338) | fluorometric | – | – | reference: IC50 hMAO-A over IC50 hMAO-B | 250
Cc1cc(N2CC[C@@](C#N)(C3(C)CC3)C2=O)cc(C(=O)NCc2cc(F)cc(-c3cnn(C)c3)c2)n1 | Proline--tRNA ligase (Plasmodium falciparum, UniProt Q8I5R7) | aminoacylation activity, inhibitor, malachite green | – | – | reference: human over P. falciparum IC50 | ~1 and 0.9
COC(=O)N(C)[C@@H](Cc1ccccc1)C(=O)N[C@@H](Cc1ccccc1)C(=O)N[C@@H](Cc1ccc2ccccc2c1)C(=O)N[C@@H](CCCNC(=N)N)C(=O)N[C@@H](CC(C)C)C(=O)N[C@@H](CCCNC(=N)N)C(=O)N[C@@H](CCCNC(=N)N)C(=O)N[C@H](C)C(=O)N[C@@H](CCCNC(=N)N)C(=O)N1CCC[C@H]1C(=O)N[C@@H](CCCCN)C(N)=O | Oprk1 | binding, [3H]diprenorphine competition | CHO cells | – | reference: Ki mu over Ki kappa, higher = more kappa-selective | 2
N=C(N)NCCC[C@H](NC(=O)[C@@H]1CCCN1C(=O)[C@@H]1CSSC[C@H](N)C(=O)N[C@@H](Cc2ccc(O)cc2)C(=O)N[C@@H](Cc2ccccc2)C(=O)N[C@@H](CCC(N)=O)C(=O)N[C@@H](CC(N)=O)C(=O)N1)C(=O)NCC(N)=O | oxytocin receptor (Mesocricetus auratus, UniProt A0A1U7Q6Y0) | competition binding | hamster brain sections | – | reference: OTR over V1aR Ki | 7.67
C[C@@]12COc3ccc(OCc4ccccc4)cc3[C@@H]1CCN2 | SIGMAR1 (Homo sapiens, UniProt Q99720) | binding, radioligand binding | – | – | reference: sigma-1 over TMEM97 (sigma-2) | 4 fold
C[C@@H]1NC(=O)[C@H](CCCNC(=N)N)NC(=O)[C@H](NC(=O)[C@H](Cc2ccccc2)NC(=O)CNC(=O)CNC(=O)[C@H](Cc2ccc(O)cc2)NCc2ccccc2)CC(=O)NC[C@@H](C(=O)N[C@@H](CCCNC(=N)N)C(=O)N2CCC[C@H]2C(=O)N[C@@H](CCCCN)C(N)=O)NC1=O | Oprk1 | binding | – | – | reference: Ki(MOR) over Ki(KOR) | > 34
CCCc1ccc2c(c1)sc(=O)n2CCCCN1CCCCCC1 | Sigmar1 | – | – | – | reference: Ki sigma-2 over Ki sigma-1 | 0.7
N[C@@H](CCC(=O)N[C@@H](CS[Se]Cc1ccc(C(=O)Nc2cc(C(F)(F)F)c(Br)c(C(F)(F)F)c2)cc1)C(=O)NCC(=O)O)C(=O)O | PTPN1 (Homo sapiens, UniProt P18031) | enzyme activity | – | added: pNPP, GSH 1 mM | reference: IC50 PTPN1 over mPTPA | 94
O=c1sc2ccccc2n1CCCCCN1CCCCCC1 | Sigmar1 | – | – | – | reference: Ki sigma-2 over Ki sigma-1 | 0.4
O=C(NCCN1CCC2(CC1)C(=O)NCN2C(=O)C1CCC1)c1ccc2ccccc2c1 | Phospholipase D2 | – | – | – | reference: PLD1 IC50 over Phospholipase D2 IC50 | 12.5 fold
CCCCc1ccc2c(c1)sc(=O)n2CCCCN1CCCCCC1 | Sigmar1 | – | – | – | reference: Ki sigma-2 over Ki sigma-1 | 2.4
CC(C)C[C@H](NC(=O)[C@H](CCCNC(=N)N)NC(=O)[C@H](Cc1ccccc1)NC(=O)[C@H](Cc1ccccc1)NC(=O)[C@H](Cc1ccccc1)N(C)C(=O)CN)C(=O)N[C@@H](CCCNC(=N)N)C(=O)N[C@@H](CCCNC(=N)N)C(=O)N[C@H](C)C(=O)N[C@@H](CCCNC(=N)N)C(=O)N1CCC[C@H]1C(=O)N[C@@H](CCCCN)C(N)=O | Oprk1 | binding, [3H]diprenorphine competition | CHO cells | – | reference: Ki mu over Ki kappa, higher = more kappa-selective | 106
CCC(=O)c1ccc2c(c1)sc(=O)n2CCCCN1CCCCCC1 | Sigmar1 | – | – | – | reference: Ki sigma-2 over Ki sigma-1 | 3
CN[C@@H](C)C(=O)N[C@H]1CN(C(=O)Cc2ccccc2)CC[C@H]2CC[C@@H](C(=O)NCc3ccc(Br)cc3)N2C1=O | Baculoviral IAP repeat-containing protein 2, BIR3 domain (BIRC2, Homo sapiens, UniProt Q13490) | fluorescence polarization | – | BIR3 domain | reference: cIAP1 over XIAP | > 900
CC(C)C[C@H](NC(=O)[C@H](CCCNC(=N)N)NC(=O)[C@H](Cc1ccccc1)NC(=O)[C@H](Cc1ccccc1)NC(=O)[C@H](Cc1ccccc1)N(C)C(=O)COc1ccccc1)C(=O)N[C@@H](CCCNC(=N)N)C(=O)N[C@@H](CCCNC(=N)N)C(=O)N[C@H](C)C(=O)N[C@@H](CCCNC(=N)N)C(=O)N1CCC[C@H]1C(=O)N[C@@H](CCCCN)C(N)=O | Oprk1 | binding, [3H]diprenorphine competition | CHO cells | – | reference: Ki mu over Ki kappa, higher = more kappa-selective | 198
O=c1sc2ccccc2n1CCCCN1CCCCCC1 | Sigmar1 | – | – | – | reference: Ki sigma-2 over Ki sigma-1 | 31

A few entries again:
SMILES | target | test | system | setting | how to read | selectivity ratio
CN[C@@H](C)C(=O)N[C@H]1CN(C(=O)Cc2ccccc2)CC[C@H]2CC[C@@H](C(=O)NCc3ccc(Br)cc3)N2C1=O | Baculoviral IAP repeat-containing protein 2, BIR3 domain (BIRC2, Homo sapiens, UniProt Q13490) | fluorescence polarization | – | BIR3 domain | reference: cIAP1 over XIAP | > 900
